Assay results pooled from the literature.
“And” joins repeats or separate records; there may be more than shown.
Target: Homeodomain-interacting protein kinase 2 (HIPK2, Homo sapiens, UniProt Q9H2X6)

With `C=CC(=O)N1Cc2nc(-c3cc(-c4cc(Cl)cnc4Cl)c(F)cc3F)n(-c3ccncn3)c2C1` the inhibition was 3.6% (cell-free assay, inhibitor; 1 µM).
`CNC(=O)C1CCN(c2cc(C)c(F)cc2NC(=O)c2ccc(-c3cc(O)ccc3C)c(C)c2)CC1` gave a remaining binding of 92% (binding, competition with immobilised ligand; 1 µM).
For `Cc1ccc(C)c(-c2ccc3nc(NC(=O)C4CCCCC4)nn3c2)c1`, the remaining activity was 86% (enzyme activity, Dundee kinase panel; 10 µM).
For `Nc1nc(Nc2ccccc2)sc1C(=O)c1ccccc1`, the remaining activity was 3% (enzyme activity, inhibitor; 10 µM).
`CC(C)=CC1OC(C)(C)C2C=C3C(=O)C(Cl)=CC(O)C3C3C(O)C4OC4C(=O)C132` (centres unmarked) gave a remaining binding of 80% (cell-free assay, competition with immobilised ligand; 10 µM).
With `CNC1C[S+]2CC[S+]3CC[S+](C1)[Ru-4]321([N]=C=S)[n]2c3ccc(OC)cc3c3c4c(c5cc(F)c[n+]1c5c32)C(=O)NC4=O` (centres unmarked) the remaining binding was 78% (KinomeScan; 0.1 µM; reference: untreated).
The inhibition of `CCn1cc(C(=O)O)c(=O)c2c(N)c(F)c(NC3CCCCC3)cc21` is reported as 11.3% (kinase activity; 0.1 µM, added: ATP at Km).
With `Cc1cccc(O[C@H]2CCC[C@@H](C(C)CNCc3ccncc3)C2)c1` (relative stereo) the inhibition was -3% (enzyme activity, inhibitor; 10 µM).
The inhibition of `NC(=O)C[C@H]1CCc2sc3ncnc(O[C@H]4CC[C@H](N5CCOCC5)CC4)c3c21` is reported as -2% (enzyme activity, inhibitor; 10 µM).
`CNC(=O)C[C@H](Cc1ccc(C#N)cc1)NC(=O)c1cc(-c2ccc(CN[C@H](C)c3ccc(C)cc3)o2)ccc1Cl` — result for “activity vs control”: 106% (enzyme activity, inhibitor; 1 µM).
For `Nc1ncc(-c2cc(-c3cnn(CC(F)(F)F)c3)ncc2F)nc1C(=O)NC1CNCC(F)C1` (centres unmarked), the remaining activity was 87.6% (enzyme activity; 1 µM; reference: DMSO control).
With `CN1CCN(Cc2ccc(-c3ccc(CO[C@H]4CCC[C@@H]4NC(=O)c4cc(-c5cnn(C)c5)cnc4N)cc3)cc2)CC1` the inhibition was 1% (enzyme activity, inhibitor; 0.1 µM).
`c1ccc2c(Nc3cc(C4CCC4)[nH]n3)nc(Nc3ccc4nc[nH]c4c3)nc2c1` has a remaining activity of 62% (enzyme activity, inhibitor; 0.25 µM).
`C=CC(=O)Nc1cccc(-c2cnc3[nH]cc(C(=O)NC(C)(C)C)c3n2)c1` has an inhibition of 64% and 67% (kinase activity; 0.1 µM).
For `COc1cc(Nc2nc(C)cc(-c3cnn4nc(OC)ccc34)n2)cc(C(F)(F)F)c1`, the remaining binding was 94% (binding, competition with immobilised ligand; 1 µM).
`Cc1cccc(-c2ccc3nc(NC(=O)C4CCCCC4)nn3c2)c1` gave a remaining activity of 96% (enzyme activity, Dundee kinase panel; 10 µM).
`CN1CC[C@@H](COc2cnc(C#N)cc2-c2ccn3nc(NC(=O)C4CC4)cc3c2)C1` gave an inhibition of 13% (enzyme activity, inhibitor; 1 µM).

A few entries again:
`c1ccc2c(Nc3cc(C4CCC4)[nH]n3)nc(Nc3ccc4nc[nH]c4c3)nc2c1` has a remaining activity of 62% (enzyme activity, inhibitor; 0.25 µM).
`C=CC(=O)Nc1cccc(-c2cnc3[nH]cc(C(=O)NC(C)(C)C)c3n2)c1` has an inhibition of 64% and 67% (kinase activity; 0.1 µM).
For `COc1cc(Nc2nc(C)cc(-c3cnn4nc(OC)ccc34)n2)cc(C(F)(F)F)c1`, the remaining binding was 94% (binding, competition with immobilised ligand; 1 µM).
